Results from different studies.
Lines come from different studies, so protocols differ. ± marks the error that the study gave. In brackets after ≈: the same amount, converted by molar mass.
rep main protease: Replicase polyprotein 1ab, main protease (rep, Severe acute respiratory syndrome-related coronavirus, UniProt P0C6X7)
rep papain-like protease: Replicase polyprotein 1ab, papain-like protease (rep, Severe acute respiratory syndrome-related coronavirus, UniProt P0C6X7)
OPRK1: Kappa-type opioid receptor (OPRK1, Homo sapiens, UniProt P41145)
Sequence of UniProt P41145 (whole entry, looked up): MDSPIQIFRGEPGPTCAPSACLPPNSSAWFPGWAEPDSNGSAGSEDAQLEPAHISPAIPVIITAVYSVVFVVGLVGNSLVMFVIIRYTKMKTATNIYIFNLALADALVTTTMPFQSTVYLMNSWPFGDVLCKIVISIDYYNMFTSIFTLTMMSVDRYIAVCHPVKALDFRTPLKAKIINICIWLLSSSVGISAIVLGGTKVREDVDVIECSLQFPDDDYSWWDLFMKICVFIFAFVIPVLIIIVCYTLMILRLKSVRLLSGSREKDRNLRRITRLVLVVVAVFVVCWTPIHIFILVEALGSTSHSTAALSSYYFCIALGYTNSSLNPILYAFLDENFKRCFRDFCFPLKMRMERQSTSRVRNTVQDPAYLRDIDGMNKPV

COc1cc(C[S+]([O-])c2nc3cccnc3s2)oc(=O)c1 (stereo not shown)  IC50 (rep main protease; enzyme activity, inhibitor): < 10 µM
CCOC(=O)/C=C/C(Cc1ccccc1)NC(=O)[C@H](Cc1ccccc1)NC(=O)C(NC(=O)OCc1ccccc1)C(C)C (stereo partly shown)  IC50 (rep main protease; enzyme activity, inhibitor): 11 µM
CCC(C(=O)Nc1ccccc1)n1cccc2nc(SCc3ccc(F)cc3)nc1-2 (stereo not shown)  IC50 (rep papain-like protease; enzyme activity): 16.5 ± 2.26 µM
CCOC(=O)/C=C/C(C[C@@H]1CCNC1=O)NC(=O)[C@@H](CC(=O)C(NC(=O)OCc1ccccc1)C(C)C)Cc1ccc(F)cc1 (stereo partly shown)  IC50 (rep main protease; enzyme activity, inhibitor): > 100 µM
CCC[C@H](NC(=O)[C@H](CC(C)C)NC(=O)OCc1ccccc1)C(=O)C(=O)NCc1ccccn1  IC50 (rep main protease; enzyme activity, inhibitor): 0.6 µM
COC(=O)[C@H](C[C@@H]1CCNC1=O)NC(=O)[C@H](Cc1ccccc1)NC(=O)/C=C/c1ccc2c(c1)OCO2  IC50 (rep main protease; enzyme activity, inhibitor): > 25 µM
CCOC(=O)/C=C/C(Cc1ccccc1)NC(=O)[C@H](Cc1ccccc1)NC(=O)C(NC(=O)c1cc(C)on1)C(C)C (stereo partly shown)  IC50 (rep main protease; enzyme activity, inhibitor): 30 µM
O=C(/C=C/c1ccc2c(c1)OCO2)N[C@@H](Cc1ccccc1)C(=O)N[C@H](CO)C[C@@H]1CCNC1=O  IC50 (rep main protease; enzyme activity, inhibitor): > 25 µM
Cc1ncc(CO)c(C23OC4(O)CC(O)(CC(O)(C4)O2)O3)c1O  IC50 (Replicase polyprotein 1ab, nsp13 helicase (rep, Severe acute respiratory syndrome-related coronavirus, UniProt P0C6X7); SARS coronavirus): 3 µM
C=CC(=O)NC(CC(=C)C)C(=O)N1CC(C(=O)NC(CCSC)C(=O)NC)C(c2cccc(C(F)(F)F)c2)C1 (stereo not shown)  IC50 (rep main protease; enzyme activity, inhibitor): > 100 µM
Oc1cc(O)cc(Oc2c(O)cc(O)cc2Oc2c(O)cc(O)cc2O)c1  IC50 (rep main protease; enzyme activity, inhibitor): 165 µM
CC[C@H](C)[C@H](NC(=O)[C@H](CCCCN)NC(=O)[C@H](Cc1c[nH]c2ccccc12)NC(=O)[C@H](CC(C)C)NC(=O)[C@H](CC(C)C)NC(=O)[C@H](CC(=O)O)NC(=O)[C@@H](NC(=O)[C@H](CCCNC(=N)N)NC(=O)[C@H](CCC(=O)O)NC(=O)[C@H](CCCNC(=N)N)NC(=O)[C@H](CC(=O)O)NC(=O)[C@H](CC(C)C)NC(C)=O)[C@@H](C)CC)C(=O)N[C@@H](C)C(=O)N[C@@H](CCCNC(=N)N)C(=O)N[C@@H](C)C(=O)NCC(=O)N[C@@H](C)C(=O)N[C@@H](CCCNC(=N)N)C(=O)N[C@@H](CO)C(=O)N[C@@H](C)C(=O)N[C@H](C(=O)NCC(N)=O)C(C)C  Kd (membrane partitioning, far-UV CD; POPC:POPG:cholesterol SUV; pH 7.5, 25 °C): 2.2 ± 0.2 mM
CC(C)C[C@H](NC(=O)[C@H](CO[C@@H]1O[C@H](CO)[C@@H](O[C@@H]2O[C@H](CO)[C@H](O)[C@H](O)[C@H]2O)[C@H](O)[C@H]1O)NC(=O)[C@H](CCCCN)NC(=O)[C@H](CC(C)C)NC(=O)CNC(=O)[C@H](CCCCN)NC(=O)[C@H](CCC(=O)O)NC(=O)[C@H](C)NC(=O)[C@H](CC(C)C)NC(=O)[C@H](CC(N)=O)NC(=O)[C@@H]1CCCN1C(=O)[C@H](CC(C)C)NC(=O)[C@H](Cc1ccccc1)NC(=O)CNC(=O)[C@H](NC(=O)[C@@H](N)Cc1ccc(O)cc1)[C@H](C)O)C(N)=O  Ki (OPRK1; ligand displacement, radioligand; pH 7.5, cell membranes): 13 nM
CCC(C(=O)Nc1ccc(C)cc1)n1cccc2nc(SCc3ccc(F)cc3)nc1-2 (stereo not shown)  IC50 (rep papain-like protease; enzyme activity): > 20 µM
CC(C)C[C@H](NC(=O)[C@H](CO)NC(=O)[C@H](CCCCN)NC(=O)[C@H](CC(C)C)NC(=O)CNC(=O)[C@H](CCCCN)NC(=O)[C@H](CCC(=O)O)NC(=O)CNC(=O)[C@H](CC(C)C)NC(=O)[C@H](CC(N)=O)NC(=O)[C@@H]1CCCN1C(=O)[C@H](CC(C)C)NC(=O)[C@H](Cc1ccccc1)NC(=O)CNC(=O)[C@H](NC(=O)[C@@H](N)Cc1ccc(O)cc1)[C@H](C)O)C(N)=O  Ki (OPRK1; ligand displacement, radioligand; pH 7.5, cell membranes): 15 nM
O=[N+]([O-])c1ccc(O)c(O)c1  IC50 (rep papain-like protease; enzyme activity, inhibitor): 427 µM
CCOC(=O)/C=C/C(Cc1ccccc1)NC(=O)[C@@H](CC(=O)C(NC(=O)c1cc(C)on1)C(C)C)Cc1ccc(F)cc1 (stereo partly shown)  IC50 (rep main protease; enzyme activity, inhibitor): 39 µM
CCC(C(=O)Nc1ccc(C)cc1)n1c(SCc2ccc(F)cc2)nc2ncccc21 (stereo not shown)  IC50 (rep papain-like protease; enzyme activity): > 20 µM
C=CC(=O)NC(CC(=C)C)C(=O)N1CC(C(=O)NC(Cc2ccccc2)C(=O)NC)C(c2cccc(C(F)(F)F)c2)C1 (stereo not shown)  IC50 (rep main protease; enzyme activity, inhibitor): 3.5 µM
CCOC(=O)/C=C/C(C[C@@H]1CCNC1=O)NC(=O)[C@H](Cc1ccccc1)NC(=O)C(NC(=O)c1cc(C)on1)C(C)C (stereo partly shown)  IC50 (rep main protease; enzyme activity, inhibitor): 80 µM
CC[C@H](C)[C@H](NC(=O)[C@H](CCCCN)NC(=O)[C@H](CCCCN)NC(=O)[C@H](CC(C)C)NC(=O)[C@H](Cc1c[nH]c2ccccc12)NC(=O)CN)C(=O)NCC(=O)N[C@@H](CCCCN)C(=O)N[C@@H](CCCCN)C(=O)N[C@H](C(=O)N[C@@H](CCC(=O)O)C(=O)N[C@@H](CCCNC(=N)N)C(=O)N[C@H](C(=O)NCC(=O)N[C@@H](CCC(N)=O)C(=O)N[C@@H](Cc1c[nH]cn1)C(=O)N[C@H](C(=O)N[C@@H](CCCNC(=N)N)C(=O)N[C@@H](CC(=O)O)C(=O)N[C@@H](C)C(=O)N[C@H](C(=O)N[C@H](C(=O)N[C@@H](CCC(N)=O)C(=O)N[C@H](C(=O)N[C@H](C(=O)NCC(=O)N[C@H](C(=O)N[C@@H](C)C(=O)N[C@@H](CCC(N)=O)C(=O)N[C@@H](CCC(N)=O)C(=O)N[C@@H](C)C(=O)N[C@@H](C)C(=O)N[C@@H](CC(N)=O)C(=O)N[C@H](C(=O)N[C@@H](C)C(=O)N[C@@H](C)C(=O)N[C@H](C(=O)N[C@@H](CC(C)C)C(=O)N[C@@H](CCCCN)C(N)=O)[C@@H](C)O)C(C)C)C(C)C)[C@@H](C)CC)[C@@H](C)O)[C@@H](C)CC)[C@@H](C)O)[C@@H](C)O)C(C)C)[C@@H](C)CC  MIC (Acinetobacter baumannii; ATCC 19606, CAMHB with 10% mouse serum; 150 mM NaCl): 1 mg/L (≈ 0.238 µM)
CCC(C(=O)Nc1ccccc1OC)n1cccc2nc(SCc3ccc(F)cc3)nc1-2 (stereo not shown)  IC50 (rep papain-like protease; enzyme activity): 10.2 ± 0.69 µM
CCOC(=O)/C=C/C(C[C@@H]1CCNC1=O)NC(=O)[C@H](Cc1ccccc1)NC(=O)C(NC(=O)OCc1ccccc1)C(C)C (stereo partly shown)  IC50 (rep main protease; enzyme activity, inhibitor): 85 µM
CCC(C(=O)Nc1ccccc1C)n1c(SCc2ccc(F)cc2)nc2cccnc21 (stereo not shown)  IC50 (rep papain-like protease; enzyme activity): > 20 µM
C=CC(=O)NC(CC(=C)C)C(=O)N1CC(C(=O)NC(C(=O)NC)C(C)CC)C(c2cccc(C(F)(F)F)c2)C1 (stereo not shown)  IC50 (rep main protease; enzyme activity, inhibitor): 61.7 µM
Cc1ccc(CNC(=O)c2ccc(F)c(F)c2)cc1C(=O)N[C@H](C)c1cccc2ccccc12  IC50 (rep papain-like protease; enzyme activity, inhibitor): 0.31 ± 0.03 µM
CCCCCCCCCCCCCCCC(=O)N[C@@H](CCC(=O)NCCOCCOCCC(=O)NCCOCCOCCC(=O)NCCCC[C@H](NC(=O)[C@H](CC(=O)O)NC(=O)[C@H](CC(C)C)NC(=O)[C@H](Cc1ccc(O)cc1)NC(=O)[C@H](CCCCN)NC(=O)[C@H](CO)NC(=O)[C@H](Cc1ccc(O)cc1)NC(=O)[C@H](CC(=O)O)NC(=O)[C@H](CO)NC(=O)[C@@H](NC(=O)[C@H](Cc1ccccc1)NC(=O)[C@@H](NC(=O)CNC(=O)[C@H](CCC(N)=O)NC(=O)[C@@H](CO)NC(=O)[C@@H](N)Cc1c[nH]cn1)[C@@H](C)O)[C@@H](C)O)C(=O)N[C@@H](CCCNC(=N)N)C(=O)N[C@@H](CCCNC(=N)N)C(=O)N[C@@H](C)C(=O)N[C@@H](CCC(N)=O)C(=O)N[C@@H](CC(=O)O)C(=O)N[C@@H](Cc1ccccc1)C(=O)N[C@H](C(=O)N[C@@H](CCC(N)=O)C(=O)N[C@@H](Cc1c[nH]c2ccccc12)C(=O)N[C@@H](CC(C)C)C(=O)N[C@@H](CC(C)C)C(=O)N[C@@H](CC(N)=O)C(=O)N[C@H](C(=O)NCC(=O)NCC(=O)N1CCC[C@H]1C(=O)N[C@@H](CO)C(=O)N[C@@H](CO)C(=O)NCC(=O)N[C@@H](C)C(=O)N1CCC[C@H]1C(=O)N1CCC[C@H]1C(=O)N1CCC[C@H]1C(=O)N[C@@H](CO)C(N)=O)[C@@H](C)O)C(C)C)C(=O)O  serum enzyme activity (measured: CK; rhesus monkey, male; subcutaneous, 300 µg/kg once daily, 28 days): 123 ± 49 U/L
CCC(C(=O)Nc1ccccc1Cl)n1cccc2nc(SCc3ccc(F)cc3)nc1-2 (stereo not shown)  IC50 (rep papain-like protease; enzyme activity): 14.5 ± 1.24 µM
N#CC1=C(N)OC2=C(c3sc(N)c(C#N)c3CC2)C1c1ccccc1Cl (stereo not shown)  IC50 (Replicase polyprotein 1ab, nsp14 (rep, Severe acute respiratory syndrome-related coronavirus, UniProt P0C6X7); enzyme activity, inhibitor): 0.39 ± 0.25 µM
CCC(C(=O)Nc1ccc(F)cc1)n1c(SCc2ccc(F)cc2)nc2ncccc21 (stereo not shown)  IC50 (rep papain-like protease; enzyme activity): > 20 µM
CCOC(=O)/C=C/C(C[C@@H]1CCNC1=O)NC(=O)[C@@H](CC(=O)C(NC(=O)OCc1ccccc1)C(C)C)Cc1ccccc1 (stereo partly shown)  IC50 (rep main protease; enzyme activity, inhibitor): > 100 µM

For quick reference, copied from above:
CCOC(=O)/C=C/C(Cc1ccccc1)NC(=O)[C@H](Cc1ccccc1)NC(=O)C(NC(=O)OCc1ccccc1)C(C)C (stereo partly shown)  IC50 (rep main protease; enzyme activity, inhibitor): 11 µM
CC(C)C[C@H](NC(=O)[C@H](CO)NC(=O)[C@H](CCCCN)NC(=O)[C@H](CC(C)C)NC(=O)CNC(=O)[C@H](CCCCN)NC(=O)[C@H](CCC(=O)O)NC(=O)CNC(=O)[C@H](CC(C)C)NC(=O)[C@H](CC(N)=O)NC(=O)[C@@H]1CCCN1C(=O)[C@H](CC(C)C)NC(=O)[C@H](Cc1ccccc1)NC(=O)CNC(=O)[C@H](NC(=O)[C@@H](N)Cc1ccc(O)cc1)[C@H](C)O)C(N)=O  Ki (OPRK1; ligand displacement, radioligand; pH 7.5, cell membranes): 15 nM
